Results gathered from unrelated publications.
Lines come from different studies, so protocols differ. Several values in a cell are separate wells, animals, samples, runs or records. ± marks the error that the study gave.

| Compound | target or system | assay | test system | conditions | how to read | endpoint | result |
| --- | --- | --- | --- | --- | --- | --- | --- |
| CC(=O)N[C@H]1CC[C@H](NC(=O)CN2CCN(c3nncc(-c4ccc(C)cc4)n3)CC2)CC1 |  |  | men aged ≥65 years, plasma | oral, 100 mg single dose, study |  | AUC(0-last) | 4720 ng·h/mL |
| CCn1cc(C(=O)N2CCOCC2)c(=O)c2cc(NC3Cc4ccccc4C3)cnc21 |  |  | human, fasted | oral suspension, 150 mg single dose, arithmetic mean |  | AUC(0-last) | 1820 ng·h/mL |
| CC(C)c1nc(N(C)S(C)(=O)=O)nc(-c2ccc(F)cc2)c1/C=C/[C@@H](O)C[C@@H](O)CC(=O)O |  |  | healthy volunteers, plasma | oral, 10 mg single dose, day 1, given alone, BCRP probe |  | AUC(0-last) | 40.2 ng·h/mL |
| CN1CCC[C@H](CN2c3ccccc3Sc3ccccc32)C1.Cl |  |  | female Wistar rats, brain | oral, 16 mg/kg single dose |  | AUC(0-last) | 71500 ng·h/mL |
| CCCCCCCCc1ccc(CCC(N)(CO)CO)cc1 |  |  | male Sprague-Dawley rat, plasma | oral, 1 mg/kg, single dose |  | AUC(0-last) | 68.5 ng·h/mL |
| C[C@@]1(c2cc(NC(=O)c3ccc(C#N)cn3)ccc2F)C=CSC(N)=N1 |  |  | elderly men and women, plasma | oral, 1 mg single dose |  | AUC(0-last) | 54.7 ng·h/mL |
| NC1(C(=O)N[C@@H](CCO)c2ccc(Cl)cc2)CCN(c2nc[nH]c3nccc2-3)CC1 |  |  | human, plasma | oral, 480 mg single dose |  | AUC(0-last) | 6640 ng·h/mL and 2570 ng·h/mL and 5900 ng·h/mL and 2850 ng·h/mL and 3240 ng·h/mL |
| CCCCCCCOc1ccc(CCC(N)(CO)CO)cc1C(F)(F)F.Cl |  |  | Sprague-Dawley rat, heart | oral, 1 mg/kg, single dose |  | AUC(0-last) | 3360 ng·h/g |
| CCN(CC)CCCC(C)Nc1ccnc2cc(Cl)ccc12 (stereo not drawn) | COS-7 |  |  | 50 µM, 24 h, 0.1% DMSO, unit not given | reference: vehicle control | apoptotic cells | 0.84 ± 0.41 |
| CC(C)c1nc(N(C)S(C)(=O)=O)nc(-c2ccc(F)cc2)c1/C=C/[C@@H](O)C[C@@H](O)CC(=O)O |  |  | Wistar albino rat, both sexes, plasma | oral, 20 mg/kg |  | AUC(0-last) | 10100 ng·h/mL and 9090 ng·h/mL and 4410 ng·h/mL and 17700 ng·h/mL and 7420 ng·h/mL |
| C[C@H]1CN(C(=O)CC#N)[C@]12CCN(c1ncnc3[nH]ccc13)C2 |  |  | healthy Japanese males, plasma | oral, 25 mg single dose |  | AUC(0-last) | 951 ng·h/mL |
| COc1c(O)c(C)cc2c1C(=O)c1c(ccc(O)c1O)C2=O | HepaRG co-cultured with HK-2 | MTT |  | 66.67 µM, 24 h | reference: untreated control | cell viability | 92 ± 11.1% |
| COc1cccc(-c2n[nH]c(SCc3ccccn3)n2)c1OC |  |  | Sprague-Dawley rat, female, plasma | oral gavage, 100 mg/kg |  | AUC(0-last) | 239000 ng·h/mL |
| COc1c(O[C@@H]2O[C@H](CO)[C@@H](O)[C@H](O)[C@H]2O)cc2c(c1O)C(=O)c1c(cc(C)c(O)c1OC)C2=O | HepaRG co-cultured with HK-2 | MTT |  | 33.33 µM, 24 h | reference: untreated control | cell viability | 99.2 ± 9.48% |
| CCN(CC)Cc1cc(Nc2ccnc3cc(Cl)ccc23)ccc1O | COS-7 |  |  | 100 µM, 24 h, 0.1% DMSO, unit not given | reference: control | necrosis | 0.5 ± 0.04 |
| COc1ncc(-c2nc3c(n2C(C)C)[C@H](c2ccc(Cl)cc2)N(c2cc(Cl)cn(C)c2=O)C3=O)c(OC)n1 |  | LC-MS/MS | human, plasma | oral, 7.5 mg, cycle 1 day 1, low-dose arm |  | AUC(0-last) | 598 ng·h/mL |
| CC[C@H](C)CCCCC(=O)N[C@@H](CCN)C(=O)N[C@H](C(=O)N[C@@H](CCN)C(=O)N[C@H]1CCNC(=O)[C@H]([C@@H](C)O)NC(=O)[C@H](CCN)NC(=O)[C@H](CCN)NC(=O)[C@H](CC(C)C)NC(=O)[C@@H](Cc2ccccc2)NC(=O)[C@H](CCN)NC1=O)[C@@H](C)O |  |  | ESKD on long-term intermittent haemodialysis, plasma | intravenous infusion, 0.75 mg/kg, geometric least squares mean |  | AUC(0-last) | 30500 ng·h/mL |
| CCc1cc(C(=O)NC)c2nccc(N3CCc4c(cc(Cn5ccnc5)cc4-c4cn(C)nc4C(F)(F)F)C3=O)c2c1 |  |  | Sprague Dawley rat, male, plasma | oral, 100 mg/kg twice daily, day 1 |  | AUC(0-last) | 117000 ng·h/mL |
